Measurements of several laboratories.
A part holds a random share of what one study measured.
Chain of UniProt P07949 (whole entry, looked up): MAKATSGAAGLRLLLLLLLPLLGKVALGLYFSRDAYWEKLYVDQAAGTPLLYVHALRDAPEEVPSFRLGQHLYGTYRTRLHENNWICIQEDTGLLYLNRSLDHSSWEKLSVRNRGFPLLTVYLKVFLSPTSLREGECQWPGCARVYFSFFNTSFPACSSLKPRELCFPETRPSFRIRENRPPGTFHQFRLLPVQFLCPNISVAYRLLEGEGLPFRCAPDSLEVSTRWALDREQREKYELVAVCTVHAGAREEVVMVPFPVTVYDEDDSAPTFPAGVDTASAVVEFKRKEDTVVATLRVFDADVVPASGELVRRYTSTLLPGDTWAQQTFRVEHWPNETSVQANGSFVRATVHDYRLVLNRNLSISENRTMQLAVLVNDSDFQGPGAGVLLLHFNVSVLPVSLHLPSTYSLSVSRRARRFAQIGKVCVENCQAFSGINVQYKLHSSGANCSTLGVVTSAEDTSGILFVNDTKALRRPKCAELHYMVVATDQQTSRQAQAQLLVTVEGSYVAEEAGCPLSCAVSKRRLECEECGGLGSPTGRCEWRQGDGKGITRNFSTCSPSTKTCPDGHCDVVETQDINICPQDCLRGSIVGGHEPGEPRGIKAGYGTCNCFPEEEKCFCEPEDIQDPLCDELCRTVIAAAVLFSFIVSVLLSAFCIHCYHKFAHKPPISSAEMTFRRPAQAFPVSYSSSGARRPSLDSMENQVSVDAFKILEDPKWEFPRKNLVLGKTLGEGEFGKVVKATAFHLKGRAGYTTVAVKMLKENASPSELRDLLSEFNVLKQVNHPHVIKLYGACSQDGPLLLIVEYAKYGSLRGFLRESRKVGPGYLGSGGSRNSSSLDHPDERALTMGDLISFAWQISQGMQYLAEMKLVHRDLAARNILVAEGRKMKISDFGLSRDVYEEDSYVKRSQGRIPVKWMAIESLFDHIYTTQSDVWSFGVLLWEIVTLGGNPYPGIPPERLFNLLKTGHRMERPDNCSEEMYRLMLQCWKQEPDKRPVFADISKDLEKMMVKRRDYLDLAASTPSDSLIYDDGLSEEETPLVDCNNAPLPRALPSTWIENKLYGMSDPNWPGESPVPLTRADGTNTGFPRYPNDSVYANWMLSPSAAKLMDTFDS
Chain of UniProt Q15139 (whole entry, looked up): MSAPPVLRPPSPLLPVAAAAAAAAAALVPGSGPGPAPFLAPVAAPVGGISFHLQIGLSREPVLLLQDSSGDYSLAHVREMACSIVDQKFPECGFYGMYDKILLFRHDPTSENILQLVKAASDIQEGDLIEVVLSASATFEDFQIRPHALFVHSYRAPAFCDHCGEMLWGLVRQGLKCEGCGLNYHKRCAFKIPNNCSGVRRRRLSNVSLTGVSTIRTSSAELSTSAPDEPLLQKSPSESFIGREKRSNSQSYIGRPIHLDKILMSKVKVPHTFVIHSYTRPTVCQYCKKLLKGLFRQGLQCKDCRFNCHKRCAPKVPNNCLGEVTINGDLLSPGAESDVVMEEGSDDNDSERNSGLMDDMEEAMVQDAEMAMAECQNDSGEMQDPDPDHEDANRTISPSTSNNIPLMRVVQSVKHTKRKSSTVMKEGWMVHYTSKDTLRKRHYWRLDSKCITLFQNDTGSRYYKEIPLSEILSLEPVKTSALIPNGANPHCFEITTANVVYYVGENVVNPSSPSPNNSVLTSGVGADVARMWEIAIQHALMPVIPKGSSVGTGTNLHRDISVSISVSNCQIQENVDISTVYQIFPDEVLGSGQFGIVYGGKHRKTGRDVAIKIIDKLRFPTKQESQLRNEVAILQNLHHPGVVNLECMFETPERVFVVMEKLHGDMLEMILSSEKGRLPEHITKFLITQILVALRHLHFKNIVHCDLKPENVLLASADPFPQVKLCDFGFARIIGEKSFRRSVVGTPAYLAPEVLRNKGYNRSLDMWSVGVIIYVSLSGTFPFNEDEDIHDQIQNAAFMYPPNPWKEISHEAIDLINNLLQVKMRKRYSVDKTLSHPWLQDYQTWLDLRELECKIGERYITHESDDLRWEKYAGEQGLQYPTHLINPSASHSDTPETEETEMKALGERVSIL
Chain of UniProt Q14289 (whole entry, looked up): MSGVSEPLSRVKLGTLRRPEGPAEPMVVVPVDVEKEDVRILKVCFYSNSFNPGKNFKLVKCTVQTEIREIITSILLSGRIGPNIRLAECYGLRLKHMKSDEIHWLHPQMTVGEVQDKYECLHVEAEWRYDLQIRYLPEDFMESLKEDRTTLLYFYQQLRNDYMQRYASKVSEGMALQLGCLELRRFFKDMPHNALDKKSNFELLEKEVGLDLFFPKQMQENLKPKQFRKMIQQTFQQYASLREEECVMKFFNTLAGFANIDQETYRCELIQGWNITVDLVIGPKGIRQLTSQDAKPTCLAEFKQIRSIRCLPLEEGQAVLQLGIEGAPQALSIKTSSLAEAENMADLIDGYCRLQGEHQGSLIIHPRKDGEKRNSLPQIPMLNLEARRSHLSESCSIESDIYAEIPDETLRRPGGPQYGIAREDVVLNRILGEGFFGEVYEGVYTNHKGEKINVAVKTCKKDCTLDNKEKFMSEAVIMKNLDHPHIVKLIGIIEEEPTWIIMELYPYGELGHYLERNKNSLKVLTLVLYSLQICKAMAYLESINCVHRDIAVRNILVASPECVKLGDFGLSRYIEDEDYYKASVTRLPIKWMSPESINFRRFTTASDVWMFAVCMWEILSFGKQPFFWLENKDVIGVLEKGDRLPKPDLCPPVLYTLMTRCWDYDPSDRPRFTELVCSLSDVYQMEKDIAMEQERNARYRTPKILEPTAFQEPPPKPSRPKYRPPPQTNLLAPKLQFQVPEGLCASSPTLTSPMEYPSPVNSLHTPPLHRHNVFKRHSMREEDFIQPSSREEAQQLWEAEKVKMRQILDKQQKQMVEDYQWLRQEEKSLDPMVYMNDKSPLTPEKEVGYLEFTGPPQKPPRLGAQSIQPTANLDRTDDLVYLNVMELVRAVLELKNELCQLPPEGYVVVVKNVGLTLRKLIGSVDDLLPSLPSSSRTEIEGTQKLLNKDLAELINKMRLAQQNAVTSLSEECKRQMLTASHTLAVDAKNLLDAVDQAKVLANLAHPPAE
Chain of UniProt Q9H422 (whole entry, looked up): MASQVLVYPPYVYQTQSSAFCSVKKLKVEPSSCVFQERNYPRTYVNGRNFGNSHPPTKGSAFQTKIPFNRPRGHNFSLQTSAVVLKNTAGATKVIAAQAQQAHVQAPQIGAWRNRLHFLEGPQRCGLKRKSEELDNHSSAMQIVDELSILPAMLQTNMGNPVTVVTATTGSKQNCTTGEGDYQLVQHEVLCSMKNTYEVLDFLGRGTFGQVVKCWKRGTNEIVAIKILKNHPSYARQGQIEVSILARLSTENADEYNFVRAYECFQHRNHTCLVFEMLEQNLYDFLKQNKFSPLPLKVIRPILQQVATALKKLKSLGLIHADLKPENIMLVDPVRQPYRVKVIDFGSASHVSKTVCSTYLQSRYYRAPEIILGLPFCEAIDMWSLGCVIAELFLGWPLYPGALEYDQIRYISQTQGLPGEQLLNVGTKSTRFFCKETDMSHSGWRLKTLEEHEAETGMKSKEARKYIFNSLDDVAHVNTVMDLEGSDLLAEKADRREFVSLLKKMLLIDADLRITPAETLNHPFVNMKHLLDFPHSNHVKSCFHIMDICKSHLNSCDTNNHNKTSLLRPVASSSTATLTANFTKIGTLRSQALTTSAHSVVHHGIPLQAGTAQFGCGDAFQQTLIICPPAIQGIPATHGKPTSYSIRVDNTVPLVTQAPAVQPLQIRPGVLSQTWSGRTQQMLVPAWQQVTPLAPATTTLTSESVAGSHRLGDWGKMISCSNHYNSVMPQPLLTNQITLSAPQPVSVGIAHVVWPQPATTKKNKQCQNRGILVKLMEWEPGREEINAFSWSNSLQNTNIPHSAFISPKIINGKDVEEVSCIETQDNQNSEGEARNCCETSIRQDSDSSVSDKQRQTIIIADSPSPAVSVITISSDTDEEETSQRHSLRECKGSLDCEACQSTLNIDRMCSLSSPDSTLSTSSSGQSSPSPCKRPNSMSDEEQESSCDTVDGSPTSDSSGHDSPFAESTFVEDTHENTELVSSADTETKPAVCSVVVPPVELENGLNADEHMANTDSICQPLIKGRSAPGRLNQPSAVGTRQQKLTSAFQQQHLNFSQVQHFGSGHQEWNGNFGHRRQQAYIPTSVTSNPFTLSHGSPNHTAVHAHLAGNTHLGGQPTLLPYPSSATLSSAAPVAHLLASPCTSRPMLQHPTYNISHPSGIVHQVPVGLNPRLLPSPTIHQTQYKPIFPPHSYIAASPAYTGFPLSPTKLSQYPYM
Chain of UniProt Q8IU85 (whole entry, looked up): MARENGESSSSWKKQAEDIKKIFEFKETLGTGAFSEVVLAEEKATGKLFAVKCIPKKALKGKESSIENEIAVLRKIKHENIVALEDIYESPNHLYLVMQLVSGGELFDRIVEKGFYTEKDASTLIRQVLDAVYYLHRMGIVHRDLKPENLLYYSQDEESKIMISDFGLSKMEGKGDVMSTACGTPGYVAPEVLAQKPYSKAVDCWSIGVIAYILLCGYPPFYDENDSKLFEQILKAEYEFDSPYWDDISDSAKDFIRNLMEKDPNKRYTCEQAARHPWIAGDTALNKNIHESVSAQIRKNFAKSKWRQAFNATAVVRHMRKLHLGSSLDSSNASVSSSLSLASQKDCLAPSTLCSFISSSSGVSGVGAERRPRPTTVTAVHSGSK
Chain of UniProt P50750 (whole entry, looked up): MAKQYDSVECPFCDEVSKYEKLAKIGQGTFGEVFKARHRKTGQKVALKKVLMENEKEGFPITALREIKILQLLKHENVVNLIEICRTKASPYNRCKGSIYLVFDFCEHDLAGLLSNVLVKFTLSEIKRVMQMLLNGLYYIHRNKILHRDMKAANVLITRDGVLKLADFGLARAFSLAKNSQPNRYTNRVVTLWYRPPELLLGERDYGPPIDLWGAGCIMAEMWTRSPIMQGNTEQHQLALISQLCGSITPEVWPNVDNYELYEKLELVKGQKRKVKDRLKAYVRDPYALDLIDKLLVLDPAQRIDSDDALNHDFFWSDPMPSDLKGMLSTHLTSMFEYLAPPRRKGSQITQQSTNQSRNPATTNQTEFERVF

Set 1
Compound: Nc1nccc(-c2c(-c3ccc(F)cc3)ncn2C2CCNCC2)n1
Read-out: enzyme activity
Mode: inhibitor
Tested at: 0.5 µM
Reference: control
Quantity: remaining activity
Aurora kinase A (AURKA, Homo sapiens, UniProt O14965): 100%
DMPK (Homo sapiens, UniProt Q09013): 99.3%
MAP3K2 (Homo sapiens, UniProt Q9Y2U5): 94%
HIPK3 (Homo sapiens, UniProt Q9H422): 97.6%
NEK9 (Homo sapiens, UniProt Q8TD19): 100%
CAMK1G (Homo sapiens, UniProt Q96NX5): 99.3%
MAPK10 (Homo sapiens, UniProt P53779): 105%
RET (Homo sapiens, UniProt P07949): 89.4%
CAMK1D (Homo sapiens, UniProt Q8IU85): 103%
ROCK2 (Homo sapiens, UniProt O75116): 102%
CSNK2A2 (Homo sapiens, UniProt P19784): 92.2%
GRK5 (Homo sapiens, UniProt P34947): 103%
PRKD1 (Homo sapiens, UniProt Q15139): 54.6%
PTK2B (Homo sapiens, UniProt Q14289): 94.6%
DYRK4 (Homo sapiens, UniProt Q9NR20): 99.3%
CDK7 (Homo sapiens, UniProt P50613): 98.9%
BRSK1 (Homo sapiens, UniProt Q8TDC3): 99.7%

Set 2
SMILES: O=C(NCCCC1CCCCC1)c1ccc(CNC(=O)c2cnn(-c3ccccc3)c2C(F)(F)F)cc1
Read-out: cell-free assay
Technique: competition with immobilised ligand
Tested at: 0.1 µM
Quantity: remaining binding
DSTYK (Homo sapiens, UniProt Q6XUX3): 100%
ERBB4 (Homo sapiens, UniProt Q15303): 100%
RET (Homo sapiens, UniProt P07949): 89%
YES1 (Homo sapiens, UniProt P07947): 100%
PRKD1 (Homo sapiens, UniProt Q15139): 100%
TYRO3 (Homo sapiens, UniProt Q06418): 100%
SBK1 (Homo sapiens, UniProt Q52WX2): 100%
MAP3K9 (Homo sapiens, UniProt P80192): 100%
PTK2B (Homo sapiens, UniProt Q14289): 93%
Tyrosine-protein kinase ABL1, phosphorylated (ABL1, Homo sapiens, UniProt P00519, F317L): 82%
PI4KB (Homo sapiens, UniProt Q9UBF8): 77%
PRKCE (Homo sapiens, UniProt Q02156): 88%
CDK9 (Homo sapiens, UniProt P50750): 100%
FRK (Homo sapiens, UniProt P42685): 77%

Set 3
Host: mouse
Matrix: microsomes or S9
Tested at: 2 µM
Time: 0.5 h
Quantity: remaining compound
O=C(Nc1ccccc1C(F)(F)F)N1Cc2c(sc3c2CCCC3)-n2cccc2C1c1ccccc1 (stereo not drawn): 0.938%
O=C(NCc1ccc(F)cc1)N1Cc2c(sc3c2CCCC3)-n2cccc2C1c1cccs1 (stereo not drawn): 16.7%
COc1cc(=O)n(C)cc1C(=O)N1CCc2c(cnc3cc(C)nn23)C1: 68.4%
N#Cc1nc(N2CCCC2)nc(N(c2ccccc2)c2ccccc2)n1: 15.2%
CC(C)NC(=O)CN1C(=O)c2ccccc2N2C(=O)c3ccccc3C12 (stereo not drawn): 79.2%
Cc1ccccc1-c1nc2ccccc2cc1Cn1nc(N2CCC(O)CC2)c2c(N)ncnc21: 30.8%

Further values, each from its own experiment
Cell line: HuT78
Technique: CCK-8
Tested at: 2 µM
Time: 48 h
Reference: untreated control
CCOC(=O)c1cnc2ccc(-c3cncc(NS(=O)(=O)c4ccccc4)c3)cn12 — log10 relative viability: -1.13
Cc1[nH]nc2ccc(-c3cncc(OC[C@@H](N)Cc4ccccc4)c3)cc12 — log10 relative viability: -0.954

Some of these lines once more (set 2):
SBK1 (Homo sapiens, UniProt Q52WX2): 100%
MAP3K9 (Homo sapiens, UniProt P80192): 100%
PTK2B (Homo sapiens, UniProt Q14289): 93%
Tyrosine-protein kinase ABL1, phosphorylated (ABL1, Homo sapiens, UniProt P00519, F317L): 82%
PI4KB (Homo sapiens, UniProt Q9UBF8): 77%
